# Published values of several laboratories.
# Parts stem from different laboratories: compare values within a part only. Changes are numbered by the printed parent chain.

# Set 1 — method: aptamer microarray, sandwich; form: DNA with 2'F-ANA; sample: in vitro; concentration: 200 nM; added: Cy3 exosite-II aptamer, 400 nM; reading: higher = stronger binding; strand: GGTTGGTGTGGTTGG
# Target: Prothrombin, mature alpha-thrombin (F2, Homo sapiens, UniProt P00734)
# Setting: whole 15-mer aptamer, many near background
Modification,mean fluorescence intensity [a.u.]
2'F-ANA at 1 2 6 9 11 13 14,69.4
2'F-ANA at 3 5 7 11 12 14,57.2
2'F-ANA at 1 2 3 12 13 15,393
2'F-ANA at 1 2 3 4 5 11 13 14 15,46.6
2'F-ANA at 1 4 6 7 8 9 13 14,57.8
2'F-ANA at 1 3 4 8 9 11 12 14 15,78.3
2'F-ANA at 1 3 6 10 11 12 14 15,58.7
2'F-ANA at 1 4 5 6 8 9 10 11 13,48.7

# Set 2 — method: RNA Bind-n-Seq; form: RNA; sample: in vitro; concentration: not given; reference: input RNA pool; reading: higher = stronger binding
# Target: RING finger protein unkempt homolog, zinc fingers 1-6, GST-SBP tag (UNK, Homo sapiens, UniProt Q9C0B0, residues 30-357)
# UniProt Q9C0B0, sequence (30-357, looked up): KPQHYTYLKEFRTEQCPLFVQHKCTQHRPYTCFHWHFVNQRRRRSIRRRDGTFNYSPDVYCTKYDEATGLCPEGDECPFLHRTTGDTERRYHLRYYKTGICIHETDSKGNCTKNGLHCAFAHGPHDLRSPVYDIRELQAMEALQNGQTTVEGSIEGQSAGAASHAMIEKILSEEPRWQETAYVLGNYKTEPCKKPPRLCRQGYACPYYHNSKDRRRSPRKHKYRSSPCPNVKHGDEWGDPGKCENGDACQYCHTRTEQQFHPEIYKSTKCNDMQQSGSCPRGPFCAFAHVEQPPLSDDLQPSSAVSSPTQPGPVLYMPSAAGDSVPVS
# Setting: RNA with constant flanks, human and mouse sites, ends assumed
# All sequences stand within: GGGAGUUCUACAGUCCGACGAUC … CAACAGAGGAUUGAGCAUCA
Strand,bound/input enrichment
GGUUGUUUCAAUCUAACUGUCAAAGGUCAUGCUAAAUGUGUAGAAGUAGUGAAAACUUUUAACUUGCCAUUGCUGAUGCUCGGUGGAGGAGGCUACACAAUCCGGAAUGUUGCCCGAUGU,0.629 ratio
GGCCUGACAAAUUAUGCUGCAGCCUAUUGCACUGGCCUGCUGCUGGCCCGCAGGCUUCUGAAUAGGUUUGGCAUGGACAAGAUCUAUGAAGGCCAAGUGGAGGUGAAUGGAGGUGAAUAC,0.146 ratio
GAGUCAUGCAACGGUUCACACCAGGCAAGGGGGGAUCCACUCAGUGGAGCAUCUGAUAGGAUGAAAGAAGCAUCAGUCAACCCAUCGGGAGCCCGAGAAGAACAAGAGGCUCACACUGAC,0.104 ratio
UCACAAGAUCUUUCAGCAGCACCCGCUGAACAGUAUCUUCAGGAGAAGCUGCCAGAUGAAGUAGUUUUAAAAAUAUUUUCUUAUUUGCUGGAACAAGACCUUUGUAGAGCUGCUUGCGUG,4.86 ratio
ACUGAAAAUAAAGAUAUUUAUUGGAAAAAUGUGAGAGAGAAGUUGUCAGCAGGAGAGAGCAUUAGUUUGGAUGAAUUCAAGUCAUUUUGCCAUUUUACAACCCACUUGGAAGACUUUGCU,0.89 ratio
AAUGGAGUGACUUUGCGUAGGCUUGCGGGUGUCCAGGCCGCCUAGGCUGGAGAGAAAGCCAGUAGAAAUAGAUAUGAUUGUAGGAAAAGACCGGGAAGGUUUCUUUACCAACGGUUUGAC,15.5 ratio
CCAGUAACUUCUACAGCACCUCCCAUUGUGAGCGGAGUCAGCAGCAGUGCCAGUGGACCAAGCACUGCUAAUUACAGCUCCUUUUCCAGUGCAUCAAUGCCGCAGAUCCCAGUUGCGUCA,0.164 ratio
ACCCCCAUGGUCCCUAUCUGUAGUCAGACUGUGCUGGCUGGGUCUCUGCAGGGAACCUGUUAUAGCAGGUUUGUGGUGACCUUGGAGGGAGGGUCUGCCAGCAGAGAAUACAGUGCGCUU,0.151 ratio

# Set 3 — method: RNA Bind-n-Seq; form: RNA; sample: in vitro; concentration: 1 µM; setting: whole 134-nt RNA, ends assumed; added: 150 mM KCl; reference: input library; reading: higher = stronger binding
# Target: Ras GTPase-activating protein-binding protein 1, RRM domain (G3BP1, Homo sapiens, UniProt Q13283)
# UniProt Q13283, sequence (whole entry, looked up): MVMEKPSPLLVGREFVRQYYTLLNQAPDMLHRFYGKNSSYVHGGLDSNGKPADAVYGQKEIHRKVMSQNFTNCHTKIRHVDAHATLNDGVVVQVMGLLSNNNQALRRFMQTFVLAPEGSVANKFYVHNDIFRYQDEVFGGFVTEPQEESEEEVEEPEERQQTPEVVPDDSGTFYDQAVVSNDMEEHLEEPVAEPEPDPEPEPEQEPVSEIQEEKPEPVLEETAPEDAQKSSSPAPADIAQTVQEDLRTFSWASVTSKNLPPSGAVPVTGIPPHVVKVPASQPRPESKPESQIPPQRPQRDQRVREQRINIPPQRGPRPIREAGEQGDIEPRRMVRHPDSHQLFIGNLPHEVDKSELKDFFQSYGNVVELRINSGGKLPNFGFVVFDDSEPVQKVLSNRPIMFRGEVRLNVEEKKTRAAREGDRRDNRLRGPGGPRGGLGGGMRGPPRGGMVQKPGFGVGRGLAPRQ
# All sequences stand within: GGGAGUUCUACAGUCCGACGAUC … UGGAAUUCUCGGGUGUCAAGG
Strand,log2 enrichment
GCAGGAAGUAAAAACAAAUGGAAAUGUUUCGGAUAGUGGCAGGGGUGGGGGUUGCUAAGGAAAGGGUGGGAUGGGAGUGGGUAAAGAGUU,0.872
AGUCCUGUGCUACACAUCGUAUGUACCGAAUCGGGAAAAAGGGAGGGAAAAAAAGGGAAAGUAUUAUGUUACGCCGUUCGGAUCUGCACU,0.26
UAACUUUAGAGGAGGAUUUGAUGGAUAUGGCAGUGGACGUGGAUUUGGGGAUGGCUAUAAUGGGUAUGGAGGAGGACCUGGAGGUGGCAA,-0.79
UGCGAUAUGAACGUUCACAAGCAAUGCGUCAUCAAUGUCCCCAGCCUCUGCGGAAUGGAUCACACUGAGAAGAGGGGGCGGAUUUACCUA,-0.177
UGGCCCUGGUGGCAUGCGGGGAGGAUGAGGUGGCCUCAUGGAUCGUGGUGGUCCCGGUGGAAUGUUCAGAGGUGGCCGUGGUGGAGACAG,0.977
GUCCUGUGCUACACAUCGUAUGUACCGAAUCGGGAAAAAAAGGGAAAAAAAGGGAGGGAAAGUAUUAUGUUACGCCGUUCGGAUCUGCAC,0.581
UCCUCAAGUCCUGUGCUACACAUCGUAUGUACCGAAUCGGGCGGCGGCGGGAAAGUAUUAUGUUACGCCGUUCGGAUCUGCACUUCCAGC,-0.17
CAAGUCCUGUGCUACACAUCGUAUGUACCGAAUCGGGUUUUUUUGGGUGGGAGGGAAAGUAUUAUGUUACGCCGUUCGGAUCUGCACUUC,0.472

# Further values, each from its own experiment
# Parent: viral docking peptide; KKAKRRLFTISDS; partner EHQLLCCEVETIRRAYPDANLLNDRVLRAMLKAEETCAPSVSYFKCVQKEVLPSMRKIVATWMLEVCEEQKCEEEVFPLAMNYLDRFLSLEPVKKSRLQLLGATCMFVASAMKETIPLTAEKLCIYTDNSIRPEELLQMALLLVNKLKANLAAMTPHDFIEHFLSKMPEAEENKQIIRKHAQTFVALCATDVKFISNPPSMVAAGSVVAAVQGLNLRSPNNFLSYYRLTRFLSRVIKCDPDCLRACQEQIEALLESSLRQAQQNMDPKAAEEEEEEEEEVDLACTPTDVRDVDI
Substitution,target,test,test system,conditions,scale,measurement,value
KKAKRALFTISDS [R6A],"CCND1, cyclin fold, Cln2 fusion (human)","yeast growth competition, sequencing",yeast,weak parent motif,"reference: not given, higher = stronger binding",normalised enrichment score,1.05
